Measurements of several laboratories.
Lines come from different studies, so protocols differ.
Organism: Pseudomonas aeruginosa

CNC(C)C1CCC(N)C(OC2C(N)CC(N)C(OC3OCC(C)(O)C(NC)C3O)C2O)O1 (stereo not drawn) — MIC (broth microdilution, absorbance; clinical isolate P.A37, RPMI with 1640% FBS; 24 h, 37 °C): 12.5 µM
CC(C)(CN)CNCc1nc2ccccc2n1CCOc1ccccc1 — MIC (ATCC 27853): > 128 µg/mL
C[C@H](N)C(=O)N[C@H](C(=O)N[C@@H](CS)C(=O)N[C@@H](Cc1ccc(O)cc1)C(=O)N[C@@H](CS)C(=O)N[C@@H](CCCNC(=N)N)C(=O)N[C@H](C(=O)NCC(=O)N[C@@H](CCCNC(=N)N)C(=O)N[C@@H](CS)C(=O)N[C@@H](C)C(=O)N[C@H](C(=O)N[C@@H](CCCNC(=N)N)C(=O)O)[C@@H](C)O)[C@@H](C)O)[C@@H](C)O — MIC (broth turbidity; ATCC 27853): > 100 µM
C=C/C=C(\C)CC[C@@H]1C[C@@H](O)CC(=O)O1 — MIC (broth microdilution; KCCM 11321; 16 h, 37 °C, Mueller-Hinton broth): 64 µg/mL
O=C(Cc1ccccc1)N[C@@H]1C(=O)N2C(C(=O)O)=C(CSc3cccc4cccnc34)C[S+]([O-])[C@H]12 (stereo partly drawn) — MIC (27853): > 128 µg/mL
CC1(C)S[C@@H]2[C@H](NC(=O)[C@H](N)c3ccccc3)C(=O)N2[C@H]1C(=O)O — MIC (ATCC BAA-2108, resistant; 18 h, 37 °C, dark): > 128 µM
CC[C@H](C)CCCCC(=O)N[C@@H](CCN)C(=O)N[C@H](C(=O)N[C@@H](CCN)C(=O)N[C@H]1CCNC(=O)[C@H]([C@@H](C)O)NC(=O)[C@H](CCN)NC(=O)[C@H](CCN)NC(=O)[C@H](CC(C)C)NC(=O)[C@@H](CC(C)C)NC(=O)[C@H](CCN)NC1=O)[C@@H](C)O — MIC (broth microdilution; ATCC 17978, cation-adjusted Mueller-Hinton broth): 0.214 µM
NC[C@H]1O[C@H](O[C@H]2[C@H](O)[C@@H](O[C@H]3O[C@H](CO)[C@@H](O)[C@H](N)[C@H]3O)[C@H](N)C[C@@H]2N)[C@H](O)[C@@H](O)[C@@H]1O — MIC (broth microdilution; PAO1): 54.9 µM
CC(C)Oc1c(NC(=O)c2ccc(NC(=O)[C@H](CC(N)=O)NC(=O)c3ccc(NC(=O)c4ccc(C#N)c(Cl)c4)cc3)cc2)ccc(C(=O)Nc2ccc(C(=O)O)cc2)c1O — MIC (PA14 ΔmexAB): 0.25 µg/mL
CCN1CCN(C(=O)N[C@@H](C(=O)N[C@@H]2C(=O)N3[C@@H]2SC(C)(C)[C@@H]3C(=O)O)c2ccccc2)C(=O)C1=O — MIC (S13-35 PER-producing isolate): > 128 µg/mL
COc1c(C(=O)Nc2ccc(C(=O)O)cc2)ccc2nc(-c3cc(NC(=O)C(CC(N)=O)NC(=O)c4ccc(NC(=O)c5ccc(C#N)cc5)cc4)cn3C)[nH]c12 (stereo not drawn) — MIC (PA14 ΔmexAB): > 64 µg/mL
C[C@@H](O)[C@H]1C(=O)N2C(C(=O)O)=C(SCCN=CN)C[C@H]12 — MIC (broth microdilution, MH medium; KCCM 11328; 16 h, 37 °C, growth inhibition over 99%): 1 µM
CC1(C)S[C@@H]2[C@H](NC(=O)[C@H](N)c3ccccc3)C(=O)N2[C@H]1C(=O)O — MIC (CIP 27853, Mueller Hinton broth; overnight, 37 °C): 64 µg/mL
FC(F)(F)Oc1ccc(OCCn2c(CNCC34CC5CC(CC(C5)C3)C4)nc3ccccc32)cc1 — MIC (ATCC 27853): > 128 µg/mL
CC1(C)S[C@@H]2[C@H](NC(=O)[C@H](N)c3ccccc3)C(=O)N2[C@H]1C(=O)O — MIC (broth microdilution; clinical isolate, Mueller-Hinton broth; 24 h, 37 °C): > 400 µM
c1ccc(OCCn2c(CNC34CC5CC(CC(C5)C3)C4)nc3ccccc32)cc1 — MIC (ATCC 27853): > 128 µg/mL
CN(C)c1ccc2nc3ccc(=[N+](C)C)cc-3sc2c1 — MIC (ATCC 27853; 18 h, 37 °C, LED irradiation 10 min): > 128 µM
O=C(O)c1cn(C2CC2)c2cc(N3CCNCC3)c(F)cc2c1=O — MIC (broth microdilution): 0.063 µg/mL
NC1CCCCc2c1[nH]c1ccc(Cl)c(Cl)c21 (stereo not drawn) — MIC (PAO1; added: efflux pump inhibitor 12.5 µg/mL): 32 µg/mL
CNC(C)C1CCC(N)C(OC2C(N)CC(N)C(OC3OCC(C)(O)C(NC)C3O)C2O)O1 (stereo not drawn) — MIC (clinical isolate RKI-No_496/15): 4 µg/mL
CC(C)Oc1c(NC(=O)c2ccc(NC(=O)[C@H](CC(N)=O)NC(=O)c3ccc(NC(=O)c4ccc(C#N)c(F)c4)cc3)cc2)ccc(C(=O)Nc2ccc(C(=O)O)cc2)c1O — MIC (PA14 ΔmexAB): 0.5 µg/mL
CC(C)(O/N=C(\C(=O)N[C@@H]1C(=O)N2C(C(=O)[O-])=C(C[n+]3ccccc3)CS[C@H]12)c1csc(N)n1)C(=O)O — MIC (R13-23 PER-producing isolate): > 128 µg/mL
N=C(N)c1ccc(OCc2ccc(-c3ccccc3)cc2COc2ccc(C(=N)N)cc2)cc1 — MIC (ATCC 27853; compound alone): 100 µg/mL
CO/N=C(\C(=O)N[C@@H]1C(=O)N2C(C(=O)O)=C(CSc3nc(=O)c(=O)[nH]n3C)CS[C@H]12)c1csc(N)n1 — MIC (CIP 27853, Mueller Hinton broth; overnight, 37 °C): > 512 µg/mL
CC[C@H](C)[C@H](NC(=O)[C@H](CCCCN)NC(=O)[C@H](CCC(=O)O)NC(=O)[C@H](CCCCN)NC(=O)[C@H](CO)NC(=O)[C@H](CCCCN)NC(=O)[C@H](CCCNC(=N)N)NC(=O)[C@H](Cc1ccccc1)NC(=O)[C@H](Cc1ccccc1)NC(=O)[C@H](CC(=O)O)NC(=O)CNC(=O)[C@H](CC(C)C)NC(=O)[C@@H](N)CC(C)C)C(=O)NCC(=O)N[C@@H](CCCCN)C(=O)N[C@@H](CCC(=O)O)C(=O)N[C@@H](Cc1ccccc1)C(=O)N[C@@H](CCCCN)C(=O)N[C@@H](CCCNC(=N)N)C(=O)N[C@H](C(=O)N[C@H](C(=O)N[C@@H](CCC(N)=O)C(=O)N[C@@H](CCCNC(=N)N)C(=O)N[C@H](C(=O)N[C@@H](CCCCN)C(=O)N[C@@H](CC(=O)O)C(=O)N[C@@H](Cc1ccccc1)C(=O)N[C@@H](CC(C)C)C(=O)N[C@@H](CCCNC(=N)N)C(=O)N[C@@H](CC(N)=O)C(=O)N[C@@H](CC(C)C)C(=O)N[C@H](C(=O)N1CCC[C@H]1C(=O)N[C@@H](CCCNC(=N)N)C(=O)N[C@H](C(=O)N[C@@H](CCC(=O)O)C(=O)N[C@@H](CO)C(=O)O)[C@@H](C)O)C(C)C)[C@@H](C)CC)C(C)C)[C@@H](C)CC — MIC (CMCC 10104; highest concentration 50 µM): 22.3 µM
N=C(N)c1ccc(OCc2ccccc2COc2ccc(C(=N)N)cc2)cc1 — MIC (ATCC 27853; compound alone): > 200 µg/mL
O=C(Cc1ccccc1)N[C@@H]1C(=O)N2C(C(=O)O)=C(CSc3cccc4cccnc34)CS(=O)(=O)[C@H]12 — MIC: > 128 µg/mL
NC[C@H]1O[C@H](O[C@H]2[C@H](O)[C@@H](O[C@H]3O[C@H](CO)[C@@H](O)[C@H](N)[C@H]3O)[C@H](N)C[C@@H]2N)[C@H](O)[C@@H](O)[C@@H]1O — MIC (broth microdilution; CMCC 10104): 64.3 µM
O=C(Cc1ccccc1)N[C@@H]1C(=O)N2C(C(=O)O)=C(CSc3cccc4cccnc34)CS[C@H]12 — MIC (27853): > 128 µg/mL
CC(C)C[C@@H]1NC(=O)[C@@H](Cc2ccccc2)NC(=O)[C@H](CCN)NC(=O)[C@@H](NC(=O)[C@H](CCN)NC(=O)[C@@H](N)[C@@H](C)O)CCNC(=O)[C@H]([C@@H](C)O)NC(=O)[C@H](CCN)NC(=O)[C@H](CCN)NC1=O — MIC (ATCC 27853; in combination, checkerboard, added: rifampicin): 0.78 µg/mL

A few entries again:
O=C(Cc1ccccc1)N[C@@H]1C(=O)N2C(C(=O)O)=C(CSc3cccc4cccnc34)CS(=O)(=O)[C@H]12 — MIC: > 128 µg/mL
NC[C@H]1O[C@H](O[C@H]2[C@H](O)[C@@H](O[C@H]3O[C@H](CO)[C@@H](O)[C@H](N)[C@H]3O)[C@H](N)C[C@@H]2N)[C@H](O)[C@@H](O)[C@@H]1O — MIC (broth microdilution; CMCC 10104): 64.3 µM
